# Measured values of several laboratories.
# Parts stem from different laboratories: compare values within a part only.

# Block 1 — method: protein-binding microarray; molecule type: double-stranded DNA, one strand shown; matrix: in vitro; tested at: 250 nM; notes: 60-bp whole probe; with: salmon DNA 0.4 mg/ml; relative to: random background probes; direction: higher = stronger binding; all sequences stand within: GCCTAGCAC … GTCTTGATTCGCTTGACGCTGCTG
# Target: Interferon regulatory factor 7, full length, phosphomimetic (IRF7, Homo sapiens, UniProt Q92985, residues 1-503, S101K/S471D/S472D/S475D/S476D/S477D/S483D/S484D/S487D)
# Sequence of UniProt Q92985 (whole entry, unmodified, looked up): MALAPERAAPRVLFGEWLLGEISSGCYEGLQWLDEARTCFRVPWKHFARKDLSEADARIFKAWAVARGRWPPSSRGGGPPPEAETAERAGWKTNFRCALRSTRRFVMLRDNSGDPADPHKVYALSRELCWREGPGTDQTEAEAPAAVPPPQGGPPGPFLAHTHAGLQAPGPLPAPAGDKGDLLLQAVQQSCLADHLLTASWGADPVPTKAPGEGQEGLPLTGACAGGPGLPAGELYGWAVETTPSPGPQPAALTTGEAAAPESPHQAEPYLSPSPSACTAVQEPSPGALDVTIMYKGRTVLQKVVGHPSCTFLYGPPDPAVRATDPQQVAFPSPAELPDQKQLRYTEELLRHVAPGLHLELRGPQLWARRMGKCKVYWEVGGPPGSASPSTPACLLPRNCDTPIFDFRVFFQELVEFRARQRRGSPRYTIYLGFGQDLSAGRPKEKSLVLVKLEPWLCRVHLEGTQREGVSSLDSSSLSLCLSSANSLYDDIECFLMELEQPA
Sequence,log fluorescence [z-score]
GACGAACTGGGGACTGGATACGTGCTA,-0.379
GCCGGACTGCTTCTCCTGACGTGCTAG,-0.289
GGTGATTTCAGTTTTCTTTTGTGCTAG,1.49
GACGGTATCTGTCTCGGGACGTGCTAG,-0.186
TTAGGTATCCTTAGCCTTTAGTGCTAG,-0.151
GACGGTATCGGAATCGGGACGTGCTAG,1.08
TCAGAAATCACCCTTGGAACTGTGCTA,-0.448
GACGGTATCGACTTTCGTGACGTGCTA,1.09
TTAGATAACGGGACTGGATTAGTGCTA,0.0181
TTAGCACTGGACACTGGGTTAGTGCTA,-0.761
GACGATTTCAGTCTCGTGACGTGCTAG,0.536
CTAGATTTCAGTTTCGATTAGTGCTAG,9.82
GACGGATCCCTTTTCCTGACGTGCTAG,1.02
GACGATATCAGTCTCTAGACGTGCTAG,0.0189
TTAGGTATCAACACTGGGTTAGTGCTA,-0.245
GACGAACTGAGTTTCGAGAAGTGCTAG,1.15
TCATCTTTCACTGCTGCACTGTGCTAG,0.671
TTAGATATGAGTCTCGATTAGTGCTAG,1.43
TTAGAACTGGGGAATCGATTAGTGCTA,0.0899
TCGTATGTGACCTTTTTAAGAGTGCTA,0.88
TCAAATGTCCTTTCTCCAACTGTGCTA,0.582
AGGATCCTGGGAGGGAGAGCGTGCTAG,-0.207
GATGGTTTCCTTTTCCTGACGTGCTAG,7
TTAGGTATCCTACTGCGTTAGTGCTAG,-0.0955
TTAGGGATCCTTCTCCTTTAGTGCTAG,-0.194

# Block 2 — method: RNA Bind-n-Seq; molecule type: RNA; matrix: in vitro; tested at: 365 nM; relative to: no-protein control; direction: higher = stronger binding
# Target: RNA binding protein fox-1 homolog 2, RRM domain, GST-SBP tag (RBFOX2, Homo sapiens, UniProt O43251-10, residues 100-194)
# Notes: natural RNA segment, single round, ends assumed
# All sequences stand within: GGGAGUUCUACAGUCCGACGAUC … UGGAAUUCUCGGGUGCCAA
# Construct (chain): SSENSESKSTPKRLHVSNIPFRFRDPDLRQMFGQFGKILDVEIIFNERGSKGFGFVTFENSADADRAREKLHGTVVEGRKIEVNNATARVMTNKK
Sequence,RBNS enrichment (R)
GGAGGUCAAGUAAGGCAGGAAGGUCCAGCCUGAGCUGGAUUCGGGACUCCAACACCCUGGAGUGGUUCCGUCAGACCAUGAGGAGCCAAGACCAGCAGGUCCCACAGCCG,0.304
GUUCUCUCCGCAUUCUUUAGGAGGAUUCAGGGGCGGCCUAGUGGAAGACAGUGGGCUCCAUGCCUCUUUCCCCUGGGGUUUGCUUCAGGGGCUCCUCCCCGAGGGCUUGC,0.428
CUGUUGUGGGAAUCGCGCCCACCCCCAUCCGUGUGUUGUAGCCACUCACGGUUUGCAUCAAGAGUGUUUUUUGUAACUGCCUCUGGACUUGGGACAGUGAGUAGGAUCAA,1.26
CUCAGAACCUGACAGGUAUGUUCAAAACUGUCAGUCUGUUUGUGCCUUAAAAGGGUGAGAAGGGCGCGUAGAUAGUUACAGAGUCUCAGCUGCUGACGUUCUGAGCCAGG,0.854
GCUUUCUGGGGCAGACCCUUGUCCUCUGGGAUGAUGGGCACUGCUAUCCACAGUCUCUGCCAGUUGGUUUUAUUUGGAGGUUUGUGGGCUUUUUUUAAAAAAAAAAAGUC,0.333
GUUUCAUUGAGUCCAGCUGCAGCCACGUGGCCAUCUGGAGCUGGUGCUAUAGGUGACCAUCUGGUACAUUGAGGGGACCUGUUUGCCUCCUCCACUCUAUAAGCAGUCAU,1
GGUCUGGUCCUGUUUCUGCAGACUGCUUGGCUCAGGGCUUCCUGAGAGACUUGAGAGGAACUGUCCCUCCUCCCUCAUGCUUCUCCUCAUCCCUUCAAGCUGGUUGAAGA,0.353
UCAGGGUUGAACAUGUCCUGCUCCUCAUCCCAUAAGUACCUUGGACUUUCAGGAGCCUCAGGAUCAGUCCUCUAGCAUUUCCUUCACCUUUCUCAUGUACAGGGGCAGCG,0.362
CCCAGCGCAGCACUAAGCCUUAAGCCACCCAAGGGCUGACACACCAUGCAGAGCUACGAAAUCUGUGCUGAGAAAAUGCCAUCUGGAAAGAUUUUUAACCCAUUCAUUCU,0.557
AAAUGCAUUUGAUUAUCCUGAUUUACCAGUUGUGAGAGGCAAGAAAUUUGUUGAGUCUGUAUAUAAAACUUGAAAAUUUGUAGAAAAAAUAAGGAAAAUGAUACUGCUGG,1.03
CUUAACCAAAAGAUACAGUAACAUAGCCAUGUACUGUGGUUGGGACAGAUACAGUCUCCUUGGCUUAUAGGACUUCCUAGCUACACUUUCCUUAGCGCAUUAAUGUGAUG,0.401
UGCUUGUGAAAAUGUGUUCUCGGAGUGUGUAUGCCAAGAGUGCACCCAUGGUACCAAUCAUGAAUCUUUGUUUCAGGUUCAGUAUUAUGUAGUUGUUCGUUGGUUAUACA,0.855

# Block 3 — method: RNA Bind-n-Seq; molecule type: RNA; matrix: in vitro; tested at: 200 nM; notes: whole 134-nt RNA, ends assumed; with: 150 mM LiCl; relative to: input library; direction: higher = stronger binding; library: 7-deaza-guanosine replaces G
# Target: Ras GTPase-activating protein-binding protein 1, full length (G3BP1, Homo sapiens, UniProt Q13283)
# Sequence of UniProt Q13283 (whole entry, looked up): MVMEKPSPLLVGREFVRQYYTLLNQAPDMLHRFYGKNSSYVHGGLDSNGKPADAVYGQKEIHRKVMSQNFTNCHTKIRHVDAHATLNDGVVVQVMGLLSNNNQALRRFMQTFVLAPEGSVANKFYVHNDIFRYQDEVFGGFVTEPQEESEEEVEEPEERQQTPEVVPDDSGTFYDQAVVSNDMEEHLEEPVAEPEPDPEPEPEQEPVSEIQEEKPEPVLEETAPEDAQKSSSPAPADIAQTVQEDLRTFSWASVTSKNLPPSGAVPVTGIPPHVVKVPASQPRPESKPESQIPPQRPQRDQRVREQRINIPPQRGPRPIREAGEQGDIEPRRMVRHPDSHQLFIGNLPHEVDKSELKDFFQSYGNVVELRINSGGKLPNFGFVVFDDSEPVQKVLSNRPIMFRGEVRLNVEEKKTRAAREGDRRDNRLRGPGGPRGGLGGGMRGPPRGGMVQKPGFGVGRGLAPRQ
# All sequences stand within: GGGAGUUCUACAGUCCGACGAUC … UGGAAUUCUCGGGUGUCAAGG
Sequence,log2 enrichment
UCUAGAUACAGAUGCACGAUUUGGCCAUGGAUCCGACUACUCUCGCCAACAGAACAGAUUUAAUGACUUUGAUCACCGAGAGAGGGGCAG,-1.21
UCAAGUCCUGUGCUACACAUCGUAUGUACCGAAUCGGAAAAAAAGGUGGUUUGGAAAGUAUUAUGUUACGCCGUUCGGAUCUGCACUUCC,-1.06
GUCCUGUGCUACACAUCGUAUGUACCGAAUCGGAAAAAAGGAAAAAAGGAAAAAAGGGGAAAGUAUUAUGUUACGCCGUUCGGAUCUGCA,-0.55
GCAGGAAGUAAAAACAAAUGGAAAUGCUUCGGAUAGUGGCAGGGGUGGGGGUUGCUAAGGAAAGGAAAGGAUGGGAGUGGGUAAAGAGUU,0.252
ACCAUGCAGGUGGGCAUCUUUGGGAAGUGGGGCAAGGGGGGGAUAGGGAGGGGGGUAACACUAAAGGAACAGGUGGUCCCAGGUCGUUUC,-0.241
GUCCUGUGCUACACAUCGUAUGUACCGAAUCAAACCCAAACCCCCAAAUUUUUUUAAAAAAGUAUUAUGUUACGCCGUUCGGAUCUGCAC,1.12
AAGUCCUGUGCUACACAUCGUAUGUACCGAAUCGGUUUUGGGUUUUGGGGUUUUGGGAAAGUAUUAUGUUACGCCGUUCGGAUCUGCACU,-0.0504
UCAAGUCCUGUGCUACACAUCGUAUGUACCGAAUCGGAAAGGAAAAAAAGGUGGAAAGUAUUAUGUUACGCCGUUCGGAUCUGCACUUCC,-0.532
AAGUCCUGUGCUACACAUCGUAUGUACCGAAUCGGUUUUUGGAAAAAAAGGUUUGGAAAGUAUUAUGUUACGCCGUUCGGAUCUGCACUU,-3.42
AGUCCUGUGCUACACAUCGUAUGUACCGAAUCGGGGUGGGGUUUUUUUGGGGUGGGGAAAGUAUUAUGUUACGCCGUUCGGAUCUGCACU,0.449
CAAGUCCUGUGCUACACAUCGUAUGUACCGAAUCGGAAAAAGGAAAGGAAAAAGGAAAGUAUUAUGUUACGCCGUUCGGAUCUGCACUUC,-0.571

# Block 4 — method: protein binding microarray; molecule type: double-stranded DNA, one strand shown; matrix: in vitro; tested at: not given; relative to: not given; direction: higher = stronger binding
# Target: Histone acetyltransferase KAT6A, both winged helices, GST fusion (KAT6A, Homo sapiens, UniProt Q92794, residues 1-181)
# Notes: 8-mer, flanks averaged, mean of 2 arrays, mostly near background
# Residues (chain): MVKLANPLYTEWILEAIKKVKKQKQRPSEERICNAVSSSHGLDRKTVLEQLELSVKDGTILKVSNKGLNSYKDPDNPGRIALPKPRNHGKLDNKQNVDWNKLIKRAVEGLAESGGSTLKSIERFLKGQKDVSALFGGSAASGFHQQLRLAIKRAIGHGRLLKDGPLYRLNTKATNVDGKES
Sequence,E-score
CCGCACGA,0.134
ACACGGCG,0.347
CTCGCTAC,-0.0947
TATGAGAA,-0.0545
CCGGGCGC,0.296
AGTGATTG,-0.0936
CTAGTTAA,-0.114
TCCTACCA,-0.183
CTAGCCCA,-0.228
AACGGACG,0.173
GCGGCCGC,0.42
CAGCTGCC,0.0165
AGACCCAG,-0.211
CACAGGGG,-0.0679
CGCGTGGA,0.232
ACCAGGAC,-0.0388

# A few entries again (block 4):
Sequence,E-score
AACGGACG,0.173
CCGGGCGC,0.296
CTAGCCCA,-0.228
CTAGTTAA,-0.114
TATGAGAA,-0.0545
GCGGCCGC,0.42
CACAGGGG,-0.0679
ACACGGCG,0.347
CAGCTGCC,0.0165
CTCGCTAC,-0.0947
